Measurements gathered from unrelated publications.
Each line is one published result; not all experiments were run side by side. “And” joins repeats or separate records; there may be more than shown. ± marks the error that the study gave.
HLA class I histocompatibility antigen, A alpha chain allele A*24:02: HLA class I histocompatibility antigen, A alpha chain, allele A*24:02 (Homo sapiens, UniProt P04439)
Chain of UniProt P35372 (whole entry, looked up): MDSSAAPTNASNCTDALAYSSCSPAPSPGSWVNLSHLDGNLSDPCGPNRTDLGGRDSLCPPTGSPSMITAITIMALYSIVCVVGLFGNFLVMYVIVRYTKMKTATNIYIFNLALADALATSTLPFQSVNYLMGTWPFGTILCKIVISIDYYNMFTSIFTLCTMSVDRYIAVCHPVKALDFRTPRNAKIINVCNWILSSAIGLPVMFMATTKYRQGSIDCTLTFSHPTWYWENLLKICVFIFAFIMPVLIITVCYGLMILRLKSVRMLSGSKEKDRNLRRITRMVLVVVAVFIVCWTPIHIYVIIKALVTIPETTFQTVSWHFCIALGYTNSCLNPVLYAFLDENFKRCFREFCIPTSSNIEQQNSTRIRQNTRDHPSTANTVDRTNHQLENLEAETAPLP
Chain of UniProt P63096 (whole entry, looked up): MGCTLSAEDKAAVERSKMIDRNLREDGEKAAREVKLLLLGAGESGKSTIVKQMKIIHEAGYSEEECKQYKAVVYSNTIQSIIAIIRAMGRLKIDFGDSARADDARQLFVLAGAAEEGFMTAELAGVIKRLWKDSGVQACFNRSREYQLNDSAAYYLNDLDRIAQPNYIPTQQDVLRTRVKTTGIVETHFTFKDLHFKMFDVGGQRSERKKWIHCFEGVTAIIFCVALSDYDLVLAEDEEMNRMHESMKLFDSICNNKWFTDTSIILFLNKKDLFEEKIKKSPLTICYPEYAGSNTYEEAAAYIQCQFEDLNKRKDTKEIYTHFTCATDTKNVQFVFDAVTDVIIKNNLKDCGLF
Chain of UniProt Q9P0L9 (whole entry, unmodified, looked up): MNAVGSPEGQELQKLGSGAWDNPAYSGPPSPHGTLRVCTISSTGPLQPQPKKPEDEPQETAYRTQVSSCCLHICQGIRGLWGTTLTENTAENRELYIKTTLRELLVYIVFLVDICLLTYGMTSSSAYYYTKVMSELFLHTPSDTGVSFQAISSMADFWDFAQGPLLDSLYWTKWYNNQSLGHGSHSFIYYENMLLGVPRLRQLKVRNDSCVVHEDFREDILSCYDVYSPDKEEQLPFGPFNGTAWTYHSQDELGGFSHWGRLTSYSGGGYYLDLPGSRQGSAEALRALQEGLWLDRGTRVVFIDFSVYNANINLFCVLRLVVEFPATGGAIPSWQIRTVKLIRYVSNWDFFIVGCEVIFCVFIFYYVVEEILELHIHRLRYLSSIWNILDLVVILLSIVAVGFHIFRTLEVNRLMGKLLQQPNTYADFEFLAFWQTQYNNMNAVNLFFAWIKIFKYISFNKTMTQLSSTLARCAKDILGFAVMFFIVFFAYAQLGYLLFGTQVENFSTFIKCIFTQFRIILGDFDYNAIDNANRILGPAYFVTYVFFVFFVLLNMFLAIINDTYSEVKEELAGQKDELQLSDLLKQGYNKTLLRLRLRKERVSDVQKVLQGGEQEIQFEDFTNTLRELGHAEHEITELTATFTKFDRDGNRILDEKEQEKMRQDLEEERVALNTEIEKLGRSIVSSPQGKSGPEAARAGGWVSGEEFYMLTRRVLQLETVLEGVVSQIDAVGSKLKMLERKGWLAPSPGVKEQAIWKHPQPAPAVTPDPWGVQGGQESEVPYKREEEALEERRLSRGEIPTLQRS
Chain of UniProt Q09161 (whole entry, looked up): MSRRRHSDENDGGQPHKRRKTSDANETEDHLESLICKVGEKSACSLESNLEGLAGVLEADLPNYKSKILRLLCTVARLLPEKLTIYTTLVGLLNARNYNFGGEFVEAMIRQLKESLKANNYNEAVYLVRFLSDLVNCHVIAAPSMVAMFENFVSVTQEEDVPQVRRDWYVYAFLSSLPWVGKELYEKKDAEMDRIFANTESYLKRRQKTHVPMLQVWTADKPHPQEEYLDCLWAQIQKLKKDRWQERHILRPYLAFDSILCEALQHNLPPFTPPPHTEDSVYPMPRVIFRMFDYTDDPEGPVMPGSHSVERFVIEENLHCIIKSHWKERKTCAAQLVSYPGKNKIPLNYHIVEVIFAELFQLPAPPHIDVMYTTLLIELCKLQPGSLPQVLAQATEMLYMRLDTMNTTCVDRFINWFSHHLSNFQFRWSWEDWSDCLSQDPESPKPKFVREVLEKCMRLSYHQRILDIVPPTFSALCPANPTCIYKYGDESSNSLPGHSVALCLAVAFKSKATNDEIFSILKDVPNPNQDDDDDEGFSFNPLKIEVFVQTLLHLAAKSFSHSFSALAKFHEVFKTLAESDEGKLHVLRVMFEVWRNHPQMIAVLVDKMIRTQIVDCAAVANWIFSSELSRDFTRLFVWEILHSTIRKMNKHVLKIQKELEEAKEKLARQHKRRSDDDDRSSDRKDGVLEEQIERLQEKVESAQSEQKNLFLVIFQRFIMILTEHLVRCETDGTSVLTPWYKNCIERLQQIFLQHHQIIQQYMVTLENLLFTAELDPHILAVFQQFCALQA
Chain of UniProt P11802 (whole entry, looked up): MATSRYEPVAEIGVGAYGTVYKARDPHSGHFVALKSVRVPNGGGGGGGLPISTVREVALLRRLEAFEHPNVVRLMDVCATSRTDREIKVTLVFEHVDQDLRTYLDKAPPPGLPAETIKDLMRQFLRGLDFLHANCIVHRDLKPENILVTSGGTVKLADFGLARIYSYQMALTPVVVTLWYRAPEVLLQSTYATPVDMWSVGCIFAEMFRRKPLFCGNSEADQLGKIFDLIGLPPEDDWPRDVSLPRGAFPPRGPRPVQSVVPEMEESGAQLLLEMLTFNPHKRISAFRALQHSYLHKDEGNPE
Chain of UniProt P42866 (whole entry, looked up): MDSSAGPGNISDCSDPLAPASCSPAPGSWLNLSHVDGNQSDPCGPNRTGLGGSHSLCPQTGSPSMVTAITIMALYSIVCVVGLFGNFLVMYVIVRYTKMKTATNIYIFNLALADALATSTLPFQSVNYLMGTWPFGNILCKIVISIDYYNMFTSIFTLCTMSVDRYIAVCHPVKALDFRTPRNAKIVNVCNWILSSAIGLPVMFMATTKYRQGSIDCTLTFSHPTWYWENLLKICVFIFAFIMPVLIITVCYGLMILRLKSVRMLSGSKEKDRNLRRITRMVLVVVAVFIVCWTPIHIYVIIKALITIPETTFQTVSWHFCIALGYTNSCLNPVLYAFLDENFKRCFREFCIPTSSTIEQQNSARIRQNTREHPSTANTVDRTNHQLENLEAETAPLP
Chain of UniProt O15244 (whole entry, looked up): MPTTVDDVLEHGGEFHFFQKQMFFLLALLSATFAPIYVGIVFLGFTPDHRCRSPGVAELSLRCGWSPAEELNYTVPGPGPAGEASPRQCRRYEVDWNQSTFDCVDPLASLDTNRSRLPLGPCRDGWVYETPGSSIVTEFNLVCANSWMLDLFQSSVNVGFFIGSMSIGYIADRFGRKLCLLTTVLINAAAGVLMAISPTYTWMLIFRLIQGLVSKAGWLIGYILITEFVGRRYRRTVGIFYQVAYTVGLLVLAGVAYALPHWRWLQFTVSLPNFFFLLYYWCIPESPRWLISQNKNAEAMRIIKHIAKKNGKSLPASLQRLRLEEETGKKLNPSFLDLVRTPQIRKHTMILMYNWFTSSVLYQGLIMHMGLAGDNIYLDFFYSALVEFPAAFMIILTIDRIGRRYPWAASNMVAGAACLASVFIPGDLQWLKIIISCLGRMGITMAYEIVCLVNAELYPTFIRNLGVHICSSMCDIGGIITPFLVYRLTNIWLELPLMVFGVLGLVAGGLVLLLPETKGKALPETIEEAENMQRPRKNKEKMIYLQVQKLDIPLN

Nc1nc2c(ncn2[C@@H]2O[C@H](COP(=O)(O)OP(O)(O)=S)[C@@H](O)[C@H]2O)c(=O)[nH]1  IC50 (OPRM1/GNAI1 (Homo sapiens, UniProt P35372+P63096); MOR-Gi coupling; HEK293F; ratio 1:7): 37 nM and 51.4 nM and 41.2 nM
CCCCOc1cc(C(=O)NCCN(CC)CC)c2ccccc2n1  IC50 (PKD2L1 (Homo sapiens, UniProt Q9P0L9, F549L); ion current, inhibitor; F549L): 10500 nM
CNC(C)Cc1ccc2c(c1)OCO2 (stereo not drawn)  IC50 (SLC22A2 (Homo sapiens, UniProt O15244)): 10200 ± 4600 nM
COc1cc(Nc2ncc(F)c(Nc3ccc4c(n3)NC(=O)C(C)(C)O4)n2)cc(OC)c1OC  IC50 (Collagenase 3 (MMP13, Homo sapiens, UniProt P45452); metalloproteinase-13): > 10000 nM
O=C(O)C[C@H](NC(=O)[C@H](CC(=O)O)NC(=O)[C@H](CC(=O)O)NC(=O)[C@H](CC(=O)O)NC(=O)[C@H](CC(=O)O)NC(=O)[C@H](CC(=O)O)NC(=O)[C@H](CC(=O)O)NC(=O)[C@H](CC(=O)O)NC(=O)[C@H](CC(=O)O)NC(=O)[C@H](CC(=O)O)NC(=O)[C@H](CC(=O)O)NC(=O)[C@H](CCCCNC(=O)c1ccc(C(=O)NCCOCCOB2BBBBBB3BBBB3B2)cc1)NC(=O)CN1CCN(CC(=O)O)CCN(CC(=O)O)CCN(CC(=O)O)CC1)C(=O)O [gallium-67 labelled]  tissue uptake (ddY male mice, liver; intravenous, 37 kBq, 1 h): 0.37 %ID/g
CC(C)C[C@@H]1NC(=O)[C@H](CC(C)C)NC(=O)[C@H](Cc2c[nH]c3ccccc23)NC(=O)[C@H](CO)NC(=O)[C@H](Cc2c[nH]c3ccccc23)NC(=O)[C@@H]2CCCN2C(=O)[C@H](CC(C)C)NC(=O)[C@H](Cc2c[nH]cn2)NC(=O)[C@@H]2CCCN2C(=O)[C@H](CC(N)=O)NC(=O)[C@H](C)NC(=O)[C@H](Cc2ccc(O)cc2)NC(=O)[C@H](CS)NC(=O)[C@H](CCCCNC(=O)CN2CCN(CC(=O)O)CCN(CC(=O)O)CCN(CC(=O)O)CC2)NC1=O [lutetium-177 labelled]  tissue uptake (Balb/c mouse, female, 4T1 tumour, intestine; intravenous, 3.7 MBq, 24 h): 1.71 %ID
CC[C@H](C)[C@H](NC(=O)[C@@H]1CCCN1C(=O)[C@H](CO)NC(=O)[C@H](CCSC)NC(=O)[C@H](CCC(N)=O)NC(=O)[C@@H](N)CCCCN)C(=O)N[C@@H](Cc1c[nH]c2ccccc12)C(=O)N[C@H](C(=O)N[C@@H](Cc1ccc(O)cc1)C(=O)O)[C@@H](C)O  IC50 (HLA class I histocompatibility antigen, A alpha chain, allele A*02:01 (Homo sapiens, UniProt P04439); binding): 8290 nM
CO[C@H]1C[C@@H]2CC[C@@H](C)[C@@](O)(O2)C(=O)C(=O)N2CCCC[C@H]2C(=O)O[C@H]([C@H](C)C[C@@H]2CC[C@@H](OC(=O)NCCOCCOCCOCCOCCOCCOCCOCCOCCC(=O)N3CCc4cc(Cn5nc(-c6ccc7oc(N)nc7c6)c6c(N)ncnc65)ccc4C3)[C@H](OC)C2)C[C@@H](O)[C@H](C)/C=C(\C)[C@@H](O)[C@@H](OC)C(=O)[C@H](C)C[C@H](C)/C=C/C=C/C=C/1C  AE leading to dose reduction (patients with advanced solid tumours; intravenous, 12 mg weekly, grade 3 or higher): 8.3%
CC[C@H](C)[C@H](NC(=O)[C@@H](N)CCSC)C(=O)N[C@@H](Cc1ccccc1)C(=O)N[C@@H](CC(=O)O)C(=O)N[C@@H](CCCCN)C(=O)N1CCC[C@H]1C(=O)N[C@H](C(=O)N[C@@H](Cc1ccc(O)cc1)C(=O)N[C@@H](Cc1ccccc1)C(=O)O)C(C)C  IC50 (HLA class I histocompatibility antigen, A alpha chain allele A*24:02; binding): 1310 nM
COc1ccc(N2C(=O)N(c3c(C)cccc3Cl)Cc3cnc(Nc4ccc(C5CCN(C)CC5)cc4OC)nc32)nc1  inhibition (CDK4 (Homo sapiens, UniProt P11802); kinase activity, inhibitor; 0.5 µM, complex with -CYCLIND): 7%
COc1cc2c(Oc3ccc4[nH]c(C)cc4c3F)ccnc2cc1OCC1(N)CC1  Proteinuria incidence (paediatric refractory sarcoma patients; 12 mg): 0%
CC(C)C[C@H](NC(=O)[C@@H](N)Cc1ccccc1)C(=O)N[C@@H](Cc1ccccc1)C(=O)N1CCC[C@H]1C(=O)N[C@@H](Cc1c[nH]cn1)C(=O)N[C@@H](CCC(N)=O)C(=O)N[C@@H](Cc1ccc(O)cc1)C(=O)N[C@@H](CO)C(=O)N[C@@H](Cc1ccccc1)C(=O)O  IC50 (HLA class I histocompatibility antigen, A alpha chain allele A*24:02; binding): 378 nM
C[C@H]1CN(c2n[nH]c3nc(N[C@H]4CC[C@H](NS(=O)(=O)CCC(F)(F)F)CC4)ncc23)CCO1  IC50 (Nuclear cap-binding protein subunit 1 (Homo sapiens, UniProt Q09161); biochemical): ≥ 20000 nM
COc1ccc2cc1Oc1ccc(cc1)C[C@H]1c3cc(c(OC)cc3CCN1C)Oc1c(OC)c(OC)cc3c1[C@H](C2)N(C)CC3  IC50 (PKD2L1 (Homo sapiens, UniProt Q9P0L9, F514A); ion current): 2100 nM
COc1ccc2c3c1OC1C(NC(=O)c4cccc(I)c4)CCC4C(C2)N(CC2CC2)CCC341 (stereo not drawn)  EC50 (Oprm1 (Mus musculus, UniProt P42866)): 62.4 ± 31.8 nM

Some of these lines once more:
COc1cc(Nc2ncc(F)c(Nc3ccc4c(n3)NC(=O)C(C)(C)O4)n2)cc(OC)c1OC  IC50 (Collagenase 3 (MMP13, Homo sapiens, UniProt P45452); metalloproteinase-13): > 10000 nM
